# Assay results gathered from unrelated publications.
# Protocols differ between the studies behind these lines. ± marks the error that the study gave.
# Matrix: plasma
SMILES,assay,test system,conditions,scale,quantity,value
C1=C/COCc2cc(ccc2OCCN2CCCC2)Nc2nccc(n2)-c2cccc(c2)COC/1,,"Sprague-Dawley rats, male","oral, dose not given, added: voriconazole",relative to: vehicle control,apparent volume of distribution,19 % decrease
Cc1nc(-c2cnc(NC(C)C)n(C)c2=O)ccc1Oc1ccnc(-c2cnn(C)c2)c1,,"Sprague-Dawley rat, male","oral, 10 mg/kg",,apparent clearance,0.667 mL/min/kg
COc1cc2nccc(Oc3ccc(NC(=O)NC4CC4)c(Cl)c3)c2cc1C(N)=O,UPLC-MS/MS,"Sprague-Dawley rat, male","oral, 10 mg/kg, without azole co-treatment",,apparent volume Vz/F,11.4 ± 4.03 L/kg
O=C(O)c1cc(O)c(O)c(O)c1,,rat,"oral, 1000 mg/kg extract",,apparent oral clearance,144 ± 18.2 L/h
N#Cc1ccc(Nc2nc(N)cc(Oc3c(F)cc(-c4ccc(C#N)cc4)cc3F)n2)cc1,,Sprague-Dawley rat,"oral, 5 mg/kg",,apparent clearance,815 ± 106 mL/min/kg
N=C(N)NCCNC(=O)C1(Nc2ccccc2)CCN(Cc2ccccc2)CC1,,"Sprague-Dawley rats, both sexes","oral, 50 mg/kg, mean of both sexes",,apparent volume of distribution,0.3 L
O=c1oc2c(O)c(O)cc3c(=O)oc4c(O)c(O)cc1c4c23,,rat,"oral, 500 mg/kg extract",,apparent oral clearance,33.4 ± 3.1 L/h
CCCCOCCOc1ccc(-c2ccc3c(c2)/C=C(/C(=O)Nc2ccc([S@@+]([O-])Cc4cncn4CCC)cc2)CCCN3CC(C)C)cc1,,moderate hepatic impairment patients,"150 mg, day 1, single dose, geometric mean",,apparent clearance CL/F,25.8 L/h

# Repeated from above:
SMILES,assay,test system,conditions,scale,quantity,value
N#Cc1ccc(Nc2nc(N)cc(Oc3c(F)cc(-c4ccc(C#N)cc4)cc3F)n2)cc1,,Sprague-Dawley rat,"oral, 5 mg/kg",,apparent clearance,815 ± 106 mL/min/kg
